Published values from different studies.
A part holds a random share of what one study measured. Positions count from the first letter of the parent shown.

Set 1
Target: Histone acetyltransferase KAT6A, winged helix 2, GST fusion (KAT6A, Homo sapiens, UniProt Q92794, residues 85-181)
Method: protein binding microarray
Form: double-stranded DNA, one strand shown
Medium: in vitro
Tested at: not given
Notes: 8-mer, flanks averaged, mean of 2 arrays, mostly near background
Baseline: not given
Reading: higher = stronger binding
Quantity: E-score
Residues (chain): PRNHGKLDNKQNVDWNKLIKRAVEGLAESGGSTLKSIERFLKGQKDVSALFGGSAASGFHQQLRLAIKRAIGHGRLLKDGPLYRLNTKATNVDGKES
AACCACCA: -0.122
ACACTCAG: 0.2
TGCAATAA: 0.00818
GTAGTTAA: 0.0137
CCTATCCC: -0.0871
CGCAACGC: 0.177
CTGAGGCC: 0.137
TCCCAGGA: -0.0571
CATTTGCC: -0.0307
CTATGTTA: -0.131
AACTAGTC: -0.206
ACAGTACC: -0.0879
ACACCAAA: 0.0738
CTGGCGCC: 0.229
ATGTGAGC: -0.129
AGGCCGCA: -0.022
CACTCACA: -0.0452
ATGAGTCC: -0.0953
CTGGGATA: 0.106
GCTAAGTA: -0.0566
GAAAAGGA: -0.0196
CATTATAG: -0.0621
ACGATTAT: -0.215
GATGGATA: -0.0116
AGGCCTGG: -0.094

Set 2
Target: RNA binding protein fox-1 homolog 2, RRM domain, GST-SBP tag (RBFOX2, Homo sapiens, UniProt O43251-10, residues 100-194)
Method: RNA Bind-n-Seq
Form: RNA
Medium: in vitro
Tested at: 365 nM
Notes: natural RNA segment, single round, ends assumed
Baseline: no-protein control
Reading: higher = stronger binding
Quantity: RBNS enrichment (R)
All sequences stand within: GGGAGUUCUACAGUCCGACGAUC … UGGAAUUCUCGGGUGCCAA
Construct (chain): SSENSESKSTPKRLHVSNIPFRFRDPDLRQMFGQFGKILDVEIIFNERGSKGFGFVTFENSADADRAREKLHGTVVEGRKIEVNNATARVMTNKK
UUCUUCUCUUCUAUCAUCCAAAUCAAAUGUAAGAAGUCCCUCACAUCCGAUUAGCCCAACUCUGUCUCCCAGGCCCCCUGCUGGGAAACCCAUACCCAGCAUCCCUCCCC: 0.657
GAGGCAAUGUAGUAGUUUCACUUGAAGGAAAACCAUUAUAAAAUGACAGUCAAGUGCCAUCUGGAUCUUAAGGAGCUUCCAUUUCUCCAGCUCAGUCCAUUGGAAUAGUA: 0.521
UUUGCCUGGCUCUGCUCUUUAGACUCCAGAUCCCUACCCCUCAGCAACUAGCUCCCCUGUCGGCCAGCUAAGAGAGCUGGGACAGUGGAGGCUGGCAGAAGCUGAGACGU: 0.317
UGCGAAAACGAUGCCCACCUGCCCAUCUGUCCAUCAGCCUCCCUUCUCGGUCCUCACCAGCCCAUCACUUAUAGUGGGCUCAUCAGGAGGAGCAGGGGAGGAGGACAGAG: 0.211
CAUGCCGGGGGGCCAGUGGAAAGAAGACAGGCCGUCCAGCCCGUGCCCGCCUGCGGCGGGGGCACCCAGCAAGCCCGCCCACCGCCCGCUGCCUCACCUGCUUCGCCACA: 0.246
GAGACUGGCCCUGCCCUGCUUCUCAGUCUGUUCCACAUCCUAAGGUCACACCCUGUCAGGACUUCUUCGUACUCACCUGUCCCUUCCUGCAGCUUCCUUGACAGACAGGU: 0.401
CUCAUGUCUGCUUAAAAUUCACGCUGACCUUGCAGAGCACCAGAGCAUGGGGCUGGCAUGCAGGAAGUGCCCUGUAUCUGCAGCAGGAGGCUCUGGGCUGGGACAUGGCU: 0.999
AUUGUAGGUGUGAUGUUAUGCACAGGAUGCUCAGAGCUAUGUUACUACUAUUCUUAGUUUGUAAAUUGUCCUUUUGAUACCAUCUUGUUUUCUUUUGUAGGUAUAAAUAA: 0.917
CCACUAUUCAAACUUCCAAGGAGUCCCACUCUCAGGGGGCGGGGCACAGAGCUAAAAUCUCCAAAAGAACUGGGUGUGAACUCACAUGGUGGCUAGGAAGGCAGAGCGCC: 0.384
GGGAGAGCACAGGACUGGCCCUGCUCUGCGGCCUCCUUUGUCCCAUAACCUGAAGUUAAGUCACAUCCCCUGUCGGGACCUCCGUGCACUCAUCUGUCAAGUGGGGGCGC: 0.245
AGAGACGGAAAUGGGCAGUUCAGGAGCUCCGUUAGCCUUGGCCUGGGCAGUGACACCUCUAGUGCCCCCAGCAGCCAUGUAGGCAUCCACUCCACCUGCAAAAGACGAUG: 0.362
GGGCAGCCCCAAGCCUCCUGGGGAGGCAGGGCAAAAACAGGUGCCCUCAUCGUGGUCUGUGCCAUGUCCCGUCUCUAUGGUGGUUGAGGAGAAAGGCGGGGAAGCUUCCU: 0.546

Set 3
Target: RING finger protein unkempt homolog, zinc fingers 1-6, GST-SBP tag (UNK, Homo sapiens, UniProt Q9C0B0, residues 30-357)
UniProt Q9C0B0, sequence (30-357, looked up): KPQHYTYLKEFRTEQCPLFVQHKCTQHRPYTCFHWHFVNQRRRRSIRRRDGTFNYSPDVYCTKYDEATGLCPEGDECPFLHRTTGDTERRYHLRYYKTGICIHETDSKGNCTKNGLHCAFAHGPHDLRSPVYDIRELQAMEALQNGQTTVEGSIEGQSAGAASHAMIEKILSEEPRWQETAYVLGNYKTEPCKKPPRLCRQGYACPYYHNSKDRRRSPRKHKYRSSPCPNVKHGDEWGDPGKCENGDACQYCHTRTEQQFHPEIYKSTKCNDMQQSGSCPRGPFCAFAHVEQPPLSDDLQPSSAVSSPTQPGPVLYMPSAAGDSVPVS
Method: RNA Bind-n-Seq
Form: RNA
Medium: in vitro
Tested at: not given
Notes: RNA with constant flanks, human-mouse chimeric sites, ends assumed
Baseline: input RNA pool
Reading: higher = stronger binding
Quantity: bound/input enrichment
All sequences stand within: GGGAGUUCUACAGUCCGACGAUC … CAACAGAGGAUUGAGCAUCA
AAAGAACUACUGAGGCAAGGCAGCAAAUUUAGGAGAGACAUUUCAACAAUAUUGAUAGAGUUAGGAUUCCAAAUUAAAAAAAAAACUAAGACAUUAUAUAUCAACAAAGCCAAUGUGUGG: 22.3 ratio
CAGUCCCCGUGUCCCAGUGCAGGACGAUGUGAACAAAAACUCAAAGCGGACCCUCUAUUGUAGUUCUUUUUUUAAAUAAUGUGCUAUUGUUUUUAAACUUUUUUUUUUUUUUUUUAAAGA: 7.75 ratio
AACGUGGAGUUGAGUUCCUUGGCCCGGCUUCCCAGCUUGAAUAAACUCCGGAAGUUGGAGCUUAGUGACAAUAUAAUUUCUGGAGGCUUGGAAGUCCUGGCAGAGAAAUGUCCAAAUCUU: 0.216 ratio
GGCUGCUGGUGACUGUCCUGGAGUGGCCGUGUCACCGGCCGGAGCGCGGCCAGACUAAUUUUAGAAAAUGCCAAGUAGGAAAUUUGCUGAGGGUGAAGUGGUCAGAGGCCGAUGGCCUGG: 3.9 ratio
UUCAAAGAAAAGGGCAGCUGUGUCAUUUCAUAAGUAACUCUGGGGGAGGGAAAUUCUAACUAGUUUGUUAAUUUUCCCCCAGAUAAAGCCAAAGUGUGUGUUGAAGAACUGAGAAAAAAU: 0.452 ratio
AAUAGAGGAUCCACCUCCCAAAGUGCUGGGAGUAAAGGUGUGGCCACCACACCUAACUUCAUAGACAUAUAUUUUUUUUAAUAUGAAUCUUCCUGUUCGUCCAGGGAAGAAAGAUUUGUU: 7.66 ratio

Set 4
Target: TAR DNA-binding protein 43, full length, His tag (TARDBP, Homo sapiens, UniProt Q13148, residues 1-414)
Method: RNA Bind-n-Seq
Form: RNA
Medium: in vitro
Tested at: 20 nM
Notes: 6-mer, flanks averaged, single round
With: 150 mM LiCl
Baseline: input library
Reading: higher = stronger binding
Quantity: 6-mer enrichment (R)
UCUGAU: 0.839
CCCGGG: 1.04
AGAGGG: 1.22
AAGUCC: 0.846
UUAAUA: 1.01
UUAACG: 0.865
CCGCUG: 0.935
UGUAUA: 1.09
UUGUAG: 1.11
CAAUCC: 0.833
CGCCAU: 0.907
CCUGCC: 1
GCGGGU: 1.17
CCAGUU: 0.954
GGCAUC: 0.886
CAUCAA: 0.819

Set 5
Target: CCND2, cyclin fold, Cln2 fusion (human)
Method: yeast growth competition, sequencing
Medium: yeast
Notes: weak parent motif
Baseline: not given
Reading: higher = stronger binding
Quantity: normalised enrichment score
Starting sequence: CDKN1A docking peptide (human); SKACRRLFGPVDS; partner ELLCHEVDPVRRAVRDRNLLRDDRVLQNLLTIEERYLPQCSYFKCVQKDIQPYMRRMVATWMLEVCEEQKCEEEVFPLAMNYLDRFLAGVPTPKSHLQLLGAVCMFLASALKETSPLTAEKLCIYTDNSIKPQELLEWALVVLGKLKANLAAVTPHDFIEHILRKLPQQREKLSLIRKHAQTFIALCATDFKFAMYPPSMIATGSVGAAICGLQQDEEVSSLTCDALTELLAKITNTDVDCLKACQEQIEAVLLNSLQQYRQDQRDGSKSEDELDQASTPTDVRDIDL
R6I: 0.257
D12M: 0.473
R5A L7A: -0.0404
L7R: 0.0438
G9H: 0.214
G9N: 0.18
A3D: 0.0414
F8V: 0.128
R6Q: 0.562
F8N: 0.000807
L7N: 0.0505
R5P: 0.0117
V11L: 0.302
G9C: 0.492
R5D: -0.164
R5I: 0.341
A3H: 0.0569
A3S: 0.148
S13A: 0.761
R6E: 0.45
G9A: 0.85
V11P: 0.169

Set 6
Target: ABI1, truncated, D143A, DHFR fusion (Arabidopsis thaliana)
Method: DHFR PCA, deep sequencing
Medium: yeast
Notes: methotrexate growth selection, single substitutions
With: (+)-ABA 0.39 µM
Baseline: wild-type fitted maximum
Reading: higher = stronger binding
Quantity: relative binding score
Starting sequence: PYL1, truncated, DHFR fusion (Arabidopsis thaliana); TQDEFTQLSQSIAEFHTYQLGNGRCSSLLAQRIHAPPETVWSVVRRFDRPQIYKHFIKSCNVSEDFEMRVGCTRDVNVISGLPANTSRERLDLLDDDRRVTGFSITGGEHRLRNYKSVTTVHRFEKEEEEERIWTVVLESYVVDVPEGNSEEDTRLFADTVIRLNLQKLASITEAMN
F157V: 4.97%
V137P: 12.3%
D144Q: -10.5%
D75P: -8.79%
T154L: -14.2%
G107D: 32.1%
Q51F: -10%
D144I: -19%
S80H: 30.5%
E14W: 2.33%
A175I: -3.03%
D48M: -11.4%
Y18N: -6.25%
L166Q: 14.2%
S27E: -6.93%
V44C: -1.69%
D159V: -10.3%
W41F: -8.85%
A13S: 41.4%

For quick reference, copied from above (set 4):
CCUGCC: 1
UGUAUA: 1.09
CCGCUG: 0.935
CCAGUU: 0.954
CAAUCC: 0.833
CGCCAU: 0.907
